Measurements gathered from unrelated publications.
Each numbered part is a random draw from the data of one study; scales do not carry over between parts.

Series 1
Target: Phosphate system positive regulatory protein PHO4, full length, GST-tagged (PHO4, Saccharomyces cerevisiae, UniProt P07270, residues 1-312)
Technique: competition protein-binding microarray
Molecule type: double-stranded DNA, one strand shown
Medium: in vitro
Tested at: 2 µM
Notes: whole 60-bp probe, lowest competitor level
Added: Cbf1 competitor, 0.05 µM
Reading: higher = stronger binding
Constant ends, left off below: … GTCTTGATTCGCTTGACGCTGCTG
Residues (chain): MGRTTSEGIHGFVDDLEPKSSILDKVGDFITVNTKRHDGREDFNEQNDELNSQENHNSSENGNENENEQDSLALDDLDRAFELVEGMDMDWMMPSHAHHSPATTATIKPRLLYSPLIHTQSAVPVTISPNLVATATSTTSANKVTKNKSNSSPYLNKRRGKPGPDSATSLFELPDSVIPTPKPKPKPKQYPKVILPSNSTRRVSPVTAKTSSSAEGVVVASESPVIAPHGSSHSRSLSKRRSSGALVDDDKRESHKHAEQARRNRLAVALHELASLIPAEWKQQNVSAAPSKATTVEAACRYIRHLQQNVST
Oligonucleotide	fluorescence intensity
GATAGTAACTCGAGTCACGTGCTTTCTAACCATCAA	14800 a.u.
CTGCCTCTTTTCCAGCATGTGGCAACTGTCCCGACG	11000 a.u.
TGCGCAACAACTTGGACAGTGGGTGTATGTCTAGAA	4610 a.u.
AAATTACTAAGTTGGGAGGTGGGTGACGCCGTATGA	4510 a.u.
CCCTGCTGCCAGTCCCACGTGCAGACGCACCTGCAG	16300 a.u.
GCTTGCTGTCAGCGTCACAGTTAAAGTTCATATACA	2940 a.u.
GAGATTGACCTGTGTCTCGTGCTTTTCTTCCGCCTT	9490 a.u.
CGTCCTAGCGATTGAGGAGTGGGTGCCATGAGGAAG	6020 a.u.
GCCCGGTCGTTTGGATGCGTGGGTAGTATAGTTTCT	7680 a.u.
TCCTGAAGGTGTTTGCACGTGTGGACGGCTAGAGAA	17400 a.u.
AAAGCGGTAATTTGTCGTGTGGGTGCAGATATCTAT	5080 a.u.
GATCCGTATGCTCATCTCGTGATGGAGAAGTAACGC	6740 a.u.
TGCGCAACAACTTTTCACGTGATCTTATGTCTAGAA	12000 a.u.
AGGTGCCTTAAAGAACACGCGGACACACTTGTTTGG	10900 a.u.
CAAACATAAAAGTCGTTCGTGATGGTGAGTTACTTA	4300 a.u.
GCCAAGCCCCTTCATCATGTGCCACTCCACATAACA	8360 a.u.
AAAGCGGTAATTTGTCACGACACTTCACATATCTAT	5670 a.u.
GTCTTGTCTCATTGCCGTGTGGGTGTCCCCACTTCA	5750 a.u.

Series 2
Target: RNA binding protein fox-1 homolog 2, RRM domain, GST-SBP tag (RBFOX2, Homo sapiens, UniProt O43251-10, residues 100-194)
Technique: RNA Bind-n-Seq
Molecule type: RNA
Medium: in vitro
Tested at: 365 nM
Notes: natural RNA segment, single round, ends assumed
Baseline: no-protein control
Reading: higher = stronger binding
Constant ends, left off below: GGGAGUUCUACAGUCCGACGAUC … UGGAAUUCUCGGGUGCCAA
Construct (chain): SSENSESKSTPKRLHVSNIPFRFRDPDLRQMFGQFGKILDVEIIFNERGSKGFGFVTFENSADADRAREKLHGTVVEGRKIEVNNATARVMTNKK
Oligonucleotide	RBNS enrichment (R)
CAGUAGUAAAAUUUUCCUGUCCACUGUGAAUCAAAGCCUGAGUCACUCUAUUUAACCUUGGACACACUAAUAAGGUUUUAUUUUGAUUGUGUUCGUUUCCCCCCCCCCAA	0.63
CCAAUGUCAUUGUCCAAACAGAAGAGACUCAGGAGUCUGAGUAAAAUUGUGUUCCCUUGCCCUGAGCAGUCCUUAGACUCAGGGCUUGAAGGUCUGUGGUGUCUCUGUCC	0.377
UUGUUAUUACCUAUAAUUGAGAAUAAGAAAAAUAUGGAAAGUUCCCUCAAAACAGAGAGAUGCUCUCUAGUGUUUAGAAAAGUAUGGUAGAACAAGUUGCUUAUAAUUGA	0.392
UAAUACUAGCUUUGAUACAUAAUCAUUUAAGUUAUAUUUGUUUAAAAUUAUAUAUUUUCUUAGUAAUAGUCAAGUUGGUGCUUAGGAAUAAACAUGUAGAAGUUUAUGCA	7.44
CGAUAGGGUCUUGGCUUUCUACUGUCCUUAUUUCUAGAUUAUUUCCUUGUAAGUUGGAAAGAAUGUUUAUUUAACAGAUCUUGUAUUACAUUUAUUUCCCCCUGAUGUGG	0.817
CCCAUGUGUUGAAGUGCACGCCUCAUCUUUAGCAGCUGCCCCAAAGAGGCCAGAUCCUGGCAUUUUGCACACAUUUUGGUGUAUAUACAGUGUAUCACUCAGUAAGAAUG	5.64
CUGUUAUCUCCUCUCCUAAGGAGAUGAAGACCUAACAGGGGCACUGCGGCUGGGCUGCUUUAGGAGACCAAGUGGCAAGAAAGCUCACAUUUUUUGAGUUCAAAUGCUAC	0.264
ACACAAUGGUAAGUAUUUGUGUAUCUAAACAUAGCUAAACAUAGAAAAGGUAUGGUAAAAAUACAAUUUUAUAAUCUUAUGGGACUACCAUCAAUAUGUAGACCGUCAUU	0.424
CAGUAAAGAUAUGGGCCAAGGAUAGUUUUUGUACCUGGGGCCUAUACCCAAUAACAAAAUCUGCCGGUUUGUCACAGUGGCUCACCUCCCAGAACUCUGAGCAAAGGGAC	4.15
AGCAGGCUGAUGGAAGAUGGCGGGGCCUGCCAACCCCGAGGCUGGGGGAUCGCCAUAUGGACCACCUGGUUGACAGACGGCUUCUUGCUUGCCUGGGCCUUCUGCCUUAU	0.772
UCUCUCAGGGAAAAAACAUGCAGUCUUCAAGCAUCUUCCAUGUACAUUCUAUCUGGGUGAACACCUUCAUUCUGGUAGAGCACCUAACACUUUAACAGCUGUUCCCGAAA	0.583
UACUAACCAAAGGGGCUUCCUUGUCAGGGCCUGGUGGAGUUGGUGGGUCAUCGGGGCUCACUGCCUCCUGCCCUUCUCUCCUGUCUGACCCCCACUUAGCCCUUCUCUCC	0.43

Series 3
Target: Interferon regulatory factor 3, full length, phosphomimetic (IRF3, Homo sapiens, UniProt Q14653, residues 1-427, S386D/S396D/S398D/S402D/T404D/S405D)
Technique: protein-binding microarray
Molecule type: double-stranded DNA, one strand shown
Medium: in vitro
Tested at: 2540 nM top
Notes: 60-bp whole probe
Added: salmon DNA 0.4 mg/ml
Baseline: random background probes
Reading: higher = stronger binding
Constant ends, left off below: GCCTAGCAC … GTCTTGATTCGCTTGACGCTGCTG
Target sequence (chain): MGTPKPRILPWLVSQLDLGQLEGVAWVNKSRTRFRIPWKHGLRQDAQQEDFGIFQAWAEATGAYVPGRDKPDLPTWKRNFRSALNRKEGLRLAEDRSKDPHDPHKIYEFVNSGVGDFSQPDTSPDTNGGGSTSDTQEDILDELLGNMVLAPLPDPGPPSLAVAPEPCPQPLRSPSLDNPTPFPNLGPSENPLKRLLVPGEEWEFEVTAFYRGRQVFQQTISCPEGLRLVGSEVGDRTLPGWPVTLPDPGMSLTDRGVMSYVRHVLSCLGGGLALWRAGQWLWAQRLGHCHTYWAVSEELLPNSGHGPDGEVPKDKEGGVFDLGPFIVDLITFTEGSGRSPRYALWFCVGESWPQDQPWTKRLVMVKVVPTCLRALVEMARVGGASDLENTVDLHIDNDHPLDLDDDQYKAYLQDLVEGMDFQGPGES
Oligonucleotide	fitted relative affinity
TTAGATACCAGTTTCGATTAGTGCTAG	3.96 z-score
GACGGTCTCCTTCTCCTGCCGTGCTAG	3.83 z-score
GACGGACTGGACCTTCGGGACGTGCTA	-0.604 z-score
AGAGATTTCAGGAATTGAAAAGTGCTA	-0.223 z-score
TTTGGTTCCCTTTTCCTTTAGTGCTAG	7.03 z-score
ATCCATTTTGGTTTTCATTAGTGCTAG	3.1 z-score
TTAGGTATTGGTATCGGTTAGTGCTAG	2.56 z-score
TACGGTTTCGGACTGGGGACGTGCTAG	4.23 z-score
GACGAACTGACTTTCGAGACGTGCTAG	0.471 z-score
GAGGGTTTCGGTATCGGGACGTGCTAG	6.98 z-score
GACGAACTGAGACTGGAGATGTGCTAG	-0.294 z-score
GACGGAATCCTACTGCTGACGTGCTAG	0.583 z-score
TTAGGTTCCGGACTGGGTTAGTGCTAG	2.52 z-score
CTAATTAGAATTTTCATTAAGTGCTAG	2.02 z-score
TCAATTGTGGCTTTTTAACTGTGCTAG	0.22 z-score
ACCATTTTGGTTTTCTCTATGTGCTAG	3.05 z-score
TCTTTTTGCTTTCTTTTATGGTGCTAG	2.73 z-score
TTAGCTTTCGGTTTCGGTTAGTGCTAG	9.03 z-score
TCATTTATGTACTCTCTAACTGTGCTA	1.05 z-score
TTAGGTATCGGGACTAGGTTAGTGCTA	1.15 z-score
GACGATATCATTATCGAGACGTGCTAG	1.12 z-score
TCAGATTTCCATTATTGACTGTGCTAG	2.75 z-score
TCATTCTTGGGACTCACACTGTGCTAG	1.32 z-score

Series 4
Target: PABPC1L2, full length, GST fusion (mouse, UniProt A0ABA7IW68)
Technique: RNAcompete
Molecule type: RNA
Medium: in vitro
Tested at: 20 nM
Notes: 7-mer, probes averaged, single round
Baseline: mean of 7-mers
Reading: higher = stronger binding
Oligonucleotide	7-mer Z-score
GUUAUAG	-0.191
AUCGGGA	0.095
AGUAUAU	-0.0681
CGAGCCU	-0.394
AACUCAG	-0.012
UCCUUUG	-0.296
GUCCCUG	-0.293
AAGCAGG	0.318
UUACGGU	-0.0881
UCGUUGG	-0.291
CUCAACU	-0.244
UUCUGGG	-0.22
ACCGAGG	0.000733
ACACGCC	-0.226
AGGAUUG	-0.0446
UUGCGGU	-0.166
GGAGCUA	0.0533
UGGCUAC	-0.132
CCUCUUU	-0.251
CUCCGUU	-0.418

Series 5
Target: Histone acetyltransferase KAT6A, winged helix 2, GST fusion (KAT6A, Homo sapiens, UniProt Q92794, residues 85-181)
Technique: protein binding microarray
Molecule type: double-stranded DNA, one strand shown
Medium: in vitro
Tested at: not given
Notes: 8-mer, flanks averaged, mean of 2 arrays, mostly near background
Baseline: not given
Reading: higher = stronger binding
Residues (chain): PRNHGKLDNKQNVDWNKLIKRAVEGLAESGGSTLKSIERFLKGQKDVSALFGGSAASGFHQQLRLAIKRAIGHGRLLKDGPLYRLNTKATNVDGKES
Oligonucleotide	E-score
GGTAAAAA	0.0462
GGCATAAA	-0.0357
CTGCTTAA	0.0969
GAGGTCGC	-0.0648
AATTCGAG	0.0227
ATAGAAAT	0.175
CATTTCAG	0.109
GAACGCAA	0.133
AGACCTCG	0.1
CACTATTC	-0.0756
ATACGACA	-0.0396
ATCTGATC	0.0962
AGCCCGAG	0.121
GACATAGA	-0.0988
AGTGAGAC	-0.0739
AAAAGGTG	-0.085
AGCGCCGC	0.0375
GATAGACA	-0.122
ACTCATAT	-0.146
AGATTGTC	-0.125
CAAACCCA	0.0935
CACTTGTA	-0.197
ACTTTTCC	0.0448
CACCCAGG	0.0243
AACGAAAG	0.0852

A few entries again (series 3):
Oligonucleotide	fitted relative affinity
GACGAACTGAGACTGGAGATGTGCTAG	-0.294 z-score
TACGGTTTCGGACTGGGGACGTGCTAG	4.23 z-score
ACCATTTTGGTTTTCTCTATGTGCTAG	3.05 z-score
TCATTTATGTACTCTCTAACTGTGCTA	1.05 z-score
TTAGGTTCCGGACTGGGTTAGTGCTAG	2.52 z-score
TCAATTGTGGCTTTTTAACTGTGCTAG	0.22 z-score
CTAATTAGAATTTTCATTAAGTGCTAG	2.02 z-score
TTAGATACCAGTTTCGATTAGTGCTAG	3.96 z-score
GACGGAATCCTACTGCTGACGTGCTAG	0.583 z-score
